Results gathered from unrelated publications.
Protocols differ between the studies behind these lines.
Cell line: OVCAR-3

| SMILES | test | setting | how to read | measurement | value |
| --- | --- | --- | --- | --- | --- |
| CCN(C(=O)c1cc(F)ccc1Oc1nncnc1N1CCC2(C1)CN([C@H](CCCN(C)CCOC)C(C)C)C2)C(C)C | cell growth or viability | 7 days | – | GI50 | > 10 µM |
| C1=[N+]2CCCC[N+]3=Cc4ccc5[n]4[Au-]23[n]2c1ccc2-c1nc2ccccc2nc1-5.F[P-](F)(F)(F)(F)F | – | NCI60 five-dose screen | – | IC50 | 4.3 µM |
| O=C(Nc1nnc2c1c(-c1ccc(Cl)cc1)nc1sc(=Cc3ccco3)c(=O)n12)c1ccccc1 (mixture of isomers) | SRB | 10 µM, NCI60 single-dose screen | relative to: untreated | cell growth | 43.9% |
| CNS(=O)(=O)Nc1nccc(Cc2c(C)c3ccc(Oc4ncccc4F)cc3oc2=O)c1F | cell viability | 7 days | – | IC50 | > 1 µM |
| COC1CC(=O)c2c(O)cccc2C12Oc1cccc3cccc(c13)O2 (centres unmarked) | cell growth or viability, resazurin | 72 h | – | IC50 | > 25 µM |
| Cc1ccc([N+](=O)[O-])cc1S(=O)(=O)N(C)/N=C/c1cnc2ccc(Br)cn12 | cell viability, MTS | – | – | IC50 | 0.071 µM |
| CN(C)CCN1CCN(c2ccc3nc(-c4ccc5nc(-c6ccc(C(F)(F)F)cc6)[nH]c5c4)[nH]c3c2)CC1 | SRB | 10 µM, 48 h | – | growth percent | 89.7% |
| O=C1C=CC2(Oc3cccc4cccc(c34)O2)c2ccccc21 | cell growth or viability, resazurin | 72 h | – | IC50 | 3.3 µM |

Excerpt of the above:
| SMILES | test | setting | how to read | measurement | value |
| --- | --- | --- | --- | --- | --- |
| O=C1C=CC2(Oc3cccc4cccc(c34)O2)c2ccccc21 | cell growth or viability, resazurin | 72 h | – | IC50 | 3.3 µM |
